Assay results pooled from the literature.
Parts stem from different laboratories: compare values within a part only. Positions count from the first letter of the parent shown.

Block 1
Cell line: yeast with cyclin D2-Cln2 chimera
Read-out: cell growth
Action: binder
Method: competitive growth deep sequencing
Form: peptide
Tested at: concentration not given
Setting: peptide tiling library
Direction: direction not given
| Molecule | growth enrichment score |
| --- | --- |
| LAKRALKYTD | 0.156 |
| YLYLLLTQSLWCRV | -0.283 |
| KVRRNLFNQELLSP | -0.226 |
| NLEPNAEFDKRTEFIT | 0.731 |
| GPVKLEFDVSDGAT | -1.06 |
| NRLLKLFTRCLTPLVP | -1.54 |
| SPREGHMMDALYAQVK | 1.36 |
| VSRNLRSSLKSSLHTL | -0.194 |
| RRRRLLFWDKETQI | -0.525 |
| PPTFLSTGEIHAFLSS | -0.427 |

Block 2
Target: Prothrombin, mature alpha-thrombin (F2, Homo sapiens, UniProt P00734)
Method: aptamer microarray, sandwich
Form: DNA with 2'F-ANA
Medium: in vitro
Tested at: 200 nM
Setting: whole 15-mer aptamer, many near background
Added: Cy3 exosite-II aptamer, 400 nM
Direction: higher = stronger binding
Sequence: GGTTGGTGTGGTTGG
| Modification | mean fluorescence intensity [a.u.] |
| --- | --- |
| 2'F-ANA at 1 2 7 10 12 | 65.2 |
| 2'F-ANA at 1 4 5 6 7 8 10 11 | 83.4 |
| 2'F-ANA at 2 4 5 6 7 9 10 11 12 14 | 79.9 |
| 2'F-ANA at 1 3 7 8 12 13 | 587 |
| 2'F-ANA at 2 3 5 6 9 12 13 14 | 56.2 |
| 2'F-ANA at 3 5 6 8 10 15 | 54.3 |
| 2'F-ANA at 2 3 4 5 6 10 11 14 15 | 51 |
| 2'F-ANA at 1 2 3 5 12 15 | 130 |
| 2'F-ANA at 2 3 5 6 9 11 12 14 | 48.9 |
| 2'F-ANA at 1 3 4 5 7 8 9 11 | 58.6 |
| 2'F-ANA at 1 3 5 7 8 9 10 15 | 104 |
| 2'F-ANA at 1 3 9 10 12 13 | 99.4 |
| 2'F-ANA at 2 4 5 6 8 9 10 11 13 15 | 53 |
| 2'F-ANA at 1 4 5 6 7 9 10 13 15 | 50 |
| 2'F-ANA at 1 2 5 7 8 9 10 12 13 14 | 47 |
| 2'F-ANA at 1 2 3 8 9 10 13 15 | 66.6 |
| 2'F-ANA at 4 5 6 7 8 10 11 12 | 62.5 |
| 2'F-ANA at 3 5 6 9 11 15 | 78.9 |
| 2'F-ANA at 1 2 4 5 6 7 10 11 12 | 48.9 |
| 2'F-ANA at 1 3 4 6 7 8 9 11 12 14 | 75.9 |
| 2'F-ANA at 3 6 7 9 10 11 12 13 14 15 | 338 |
| 2'F-ANA at 4 7 8 9 10 11 14 | 60.9 |
| 2'F-ANA at 1 2 4 5 9 10 11 | 46.5 |
| 2'F-ANA at 1 3 5 9 13 | 48.8 |
| 2'F-ANA at 3 4 7 8 9 10 11 12 14 15 | 212 |

Block 3
Target: UBE2J1 UBC core domain (UniProt Q9Y385)
Method: yeast two-hybrid
Medium: yeast
Setting: mostly zero background
Relative to: not given
Direction: higher = stronger interaction
B1: SHPRH RING domain (UniProt Q149N8); chain KTSGGVNPEPCPICARQLGKQWAVLTCGHCFCNECISIIIEQYSVGSHRSSIKCAICRQTTSHKEISY
B2: TRIM32 RING domain (UniProt Q13049); chain NLDALREVLECPICMESFTEEQLRPKLLHCGHTICRQCLEKLLASSINGVRCPFCSKITRITSLTQ
B3: TRIM47 RING domain (UniProt Q96LD4); chain MDGSGPFSCPICLEPLREPVTLPCGHNFCLACLGALWPHRGASGAGGPGGAARCPLCQEPFPDGLQLR
B4: TRIM74 RING domain (UniProt Q86UV6); chain SLLELEDWLQCPICLEVFKESLMLQCGHSYCKGCLVSLSYHLDTKVRCPMCWQVVDGSSSLP
B5: UBE4B RING domain (UniProt O95155); chain KNARAEIDYSDAPDEFRDPLMDTLMTDPVRLPSGTIMDRSIILRHLLNSPTDPFNRQTLTESMLEPVPELKEQIQAWMREKQNSDH
B6: TRIM2 RING domain (UniProt Q9C040); chain VRQIDKQFLICSICLERYKNPKVLPCLHTFCERCLQNYIPAHSLTLSCPVCRQTSILPEKGV
B7: MARCHF2 RING domain (UniProt Q9P0N8); chain RLLSTVIRALDTPSDGPFCRICHEGANGECLLSPCGCTGTLGAVHKSCLEKWLSSSNTSYCELCHTEFAVEKRPRPLTEWL
B8: TRIM34 RING domain (UniProt Q9BYJ4); chain ILLNVQEEVTCPICLELLTEPLSLDCGHSLCRACITVSNKEAVTSMGGKSSCPVCGISYSFEHLQA
B9: RNF11 RING domain (UniProt Q9Y3C5); chain RDGSEKKIRECVICMMDFVYGDPIRFLPCMHIYHLDCIDDWLMRSFTCPSCMEPVDAALLSS
B10: RNF17 RING domain (UniProt Q9BXT8); chain SQPWGAAEIQCTRCGRRVSRSSGHHCELQCGHAFCELCLLMTEECTTIICPDCEVATAVNTRQR
B11: NHLRC1 RING domain (UniProt Q6VVB1); chain MREAEISLLECKVCFEKFGHRQQRRPRNLSCGHVVCLACVAALAHPRTLALECPFCRRACRGCDTSD
B12: CBLL1 RING domain (UniProt Q75N03); chain GEKDDTPVHFCDKCGLPIKIYGRMIPCKHVFCYDCAILHEKKGDKMCPGCSDPVQRIEQCT
B13: RNF10 RING domain (UniProt Q8N5U6); chain VRICSHEVPSCPICLYPPTAAKITRCGHIFCWACILHYLSLSEKTWSKCPICYSSVHKKDLKS
B14: TRIM28 RING domain (UniProt Q13263); chain GAEALELLEHCGVCRERLRPEREPRLLPCLHSACSACLGPAAPAAANSSGDGGAAGDGTVVDCPVCKQQCFSKDIVE
B15: RNF115 RING domain (UniProt Q9Y4L5); chain TQEQVDMGLECPVCKEDYTVEEEVRQLPCNHFFHSSCIVPWLELHDTCPVCRKSLNGEDSTR
Residues (chain): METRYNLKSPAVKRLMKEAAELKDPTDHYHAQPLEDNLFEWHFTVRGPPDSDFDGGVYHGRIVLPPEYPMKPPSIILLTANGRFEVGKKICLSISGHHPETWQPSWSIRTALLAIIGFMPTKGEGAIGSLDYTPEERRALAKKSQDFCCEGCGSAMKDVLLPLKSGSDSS
| Molecule | lacZ reporter activity |
| --- | --- |
| B1 (SHPRH RING domain) | 0 |
| VPADASPDSKCPICLDRFDNVSYLDRCLHKFCFRCVQEWSKNKAECPLCKQPFDSIFHSV (TOPORS RING domain (UniProt Q9NS56)) | 0 |
| B2 (TRIM32 RING domain) | 0 |
| B3 (TRIM47 RING domain) | 0 |
| B4 (TRIM74 RING domain) | 0 |
| AAQLLEEKLTCAICLGLYQDPVTLPCGHNFCGACIRDWWDRCGKACPECREPFPDGAELR (TRIM65 RING domain (UniProt Q6PJ69)) | 0 |
| B5 (UBE4B RING domain) | 0 |
| B6 (TRIM2 RING domain) | 0 |
| B7 (MARCHF2 RING domain) | 0 |
| B8 (TRIM34 RING domain) | 0 |
| EIKDYKARLTCPCCNMRKKDAVLTKCFHVFCFECVKTRYDTRQRKCPKCNAAFGANDFHR (RNF20 RING domain (UniProt Q5VTR2)) | 0 |
| B9 (RNF11 RING domain) | 0 |
| B10 (RNF17 RING domain) | 0 |
| B11 (NHLRC1 RING domain) | 0 |
| B12 (CBLL1 RING domain) | 0 |
| B13 (RNF10 RING domain) | 0 |
| B14 (TRIM28 RING domain) | 0 |
| B15 (RNF115 RING domain) | 0 |

Block 4
Target: Centromere-binding protein 1, full length, His-tagged (CBF1, Saccharomyces cerevisiae, UniProt P17106, residues 1-351)
Sequence of UniProt P17106 (whole entry, looked up): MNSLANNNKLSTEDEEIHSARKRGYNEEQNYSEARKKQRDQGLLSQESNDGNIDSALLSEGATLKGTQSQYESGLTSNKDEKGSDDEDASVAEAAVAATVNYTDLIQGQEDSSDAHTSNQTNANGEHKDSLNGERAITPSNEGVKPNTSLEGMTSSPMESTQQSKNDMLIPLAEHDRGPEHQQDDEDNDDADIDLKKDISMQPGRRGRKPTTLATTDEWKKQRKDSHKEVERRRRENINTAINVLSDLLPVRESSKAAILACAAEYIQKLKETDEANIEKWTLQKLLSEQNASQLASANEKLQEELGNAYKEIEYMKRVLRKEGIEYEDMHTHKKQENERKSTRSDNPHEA
Method: competition protein-binding microarray
Form: double-stranded DNA, one strand shown
Medium: in vitro
Tested at: 2 µM
Setting: whole 60-bp probe, lowest competitor level
Added: Pho4 competitor, 0.05 µM
Direction: higher = stronger binding
Constant ends, left off below: … GTCTTGATTCGCTTGACGCTGCTG
| Sequence | fluorescence intensity |
| --- | --- |
| AAAGCGGTAATTTGACAAGTGGGTGCAGATATCTAT | 71.5 a.u. |
| GAAGCGTTGCCCTATGACGTGCAAAGTACCGATATT | 68.9 a.u. |
| AGAGCAAATAGTTGAAAGGTGTGCCATAAGAAGGTG | 89.1 a.u. |
| TTATGAACTGCTACCCACGTGTAACCAATTTTTTTA | 1190 a.u. |
| TGCGCAACAACTTTTCACGTGGACTTATGTCTAGAA | 768 a.u. |
| GAAGATTGGGTCTGCGTTGTGACGGAAGTGCCAGAT | 62.8 a.u. |
| AAACTGCTGTCATAACGCGTGGTGATGTGGTTTTGC | 65.8 a.u. |
| CACATCCGGGTTCGTCACACGCGAAAGGCTTCTCAA | 76.4 a.u. |
| CTTTCCCGATCTTTTCACGTGGCGTTAGCACATTTG | 780 a.u. |
| CTTTCCCGATCTTTTCACGTGTTCTTAGCACATTTG | 1240 a.u. |
| AAAGGTTATATCCATCACGTGACGGATCTGTAAAAG | 13600 a.u. |
| GTCTTGTCTCATTTTCACGTGTCCTTCCCCACTTCA | 854 a.u. |
| CCAAAGCCGCCTGAACGCGTGTTTTTGCTGTTGTTT | 79.3 a.u. |
| TTGGCCGTATCTGATCTTGTGCAGGGAGTAACCACT | 72.9 a.u. |
| TGTTGCAGTCGAATTCTCGTGGCCGTACGCAATTTC | 78.6 a.u. |
| AAAGAACTACTGTCCCACGTGGATTCGATCCCTCCC | 473 a.u. |
| AAAGCGGTAATTTGGCGCGTGGGTGCAGATATCTAT | 88.8 a.u. |
| TTTAGTAATAATAATGATTTAATTAATGATAGTATA | 96.1 a.u. |
| AAATTACTAAGTTGTGACGTGGGTGACGCCGTATGA | 76.6 a.u. |

Block 5
Target: ABI1, truncated, D143A, DHFR fusion (Arabidopsis thaliana)
Method: DHFR PCA, deep sequencing
Medium: yeast
Setting: methotrexate growth selection, single substitutions
Added: (+)-ABA 0.032 µM
Relative to: wild-type fitted maximum
Direction: higher = stronger binding
Starting sequence: PYL1, truncated, DHFR fusion (Arabidopsis thaliana); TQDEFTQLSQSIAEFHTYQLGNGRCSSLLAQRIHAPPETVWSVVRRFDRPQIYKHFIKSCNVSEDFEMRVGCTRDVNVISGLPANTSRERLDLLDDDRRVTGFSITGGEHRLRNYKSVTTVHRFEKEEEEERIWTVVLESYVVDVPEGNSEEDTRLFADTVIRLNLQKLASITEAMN; partner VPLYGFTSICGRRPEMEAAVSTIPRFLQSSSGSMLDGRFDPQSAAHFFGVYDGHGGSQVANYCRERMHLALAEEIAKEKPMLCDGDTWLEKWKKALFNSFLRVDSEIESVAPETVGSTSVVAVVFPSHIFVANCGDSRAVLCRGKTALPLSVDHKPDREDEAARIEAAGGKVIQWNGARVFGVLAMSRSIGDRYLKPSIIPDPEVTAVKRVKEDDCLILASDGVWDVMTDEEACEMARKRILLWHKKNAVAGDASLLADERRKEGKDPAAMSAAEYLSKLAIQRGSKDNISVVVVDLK
| Substitution | relative binding score [%] |
| --- | --- |
| I12G | 0.235 |
| R123C | 11.9 |
| R88F | 6.91 |
| A170N | -8.67 |
| S87A | 8.3 |
| R74N | 0.795 |
| E130T | 32.5 |
| I105D | -1.91 |
| Q51E | 9.12 |
| Q31V | -2.46 |
| L112G | -0.23 |
| F66A | 2.25 |
| E128C | 30.7 |
| D75T | 43.7 |
| I33H | 1.75 |
| V143Q | -4.16 |
| V118D | -1.7 |
| L112A | 1.13 |
| D48N | 5.38 |
| H16T | 5.38 |
| V118G | -3.46 |
| P36N | 15.3 |

Excerpt of the above (block 4):
| Sequence | fluorescence intensity |
| --- | --- |
| CACATCCGGGTTCGTCACACGCGAAAGGCTTCTCAA | 76.4 a.u. |
| CTTTCCCGATCTTTTCACGTGGCGTTAGCACATTTG | 780 a.u. |
| CTTTCCCGATCTTTTCACGTGTTCTTAGCACATTTG | 1240 a.u. |
| AAAGGTTATATCCATCACGTGACGGATCTGTAAAAG | 13600 a.u. |
| GTCTTGTCTCATTTTCACGTGTCCTTCCCCACTTCA | 854 a.u. |
| CCAAAGCCGCCTGAACGCGTGTTTTTGCTGTTGTTT | 79.3 a.u. |
| TTGGCCGTATCTGATCTTGTGCAGGGAGTAACCACT | 72.9 a.u. |
| TGTTGCAGTCGAATTCTCGTGGCCGTACGCAATTTC | 78.6 a.u. |
| AAAGAACTACTGTCCCACGTGGATTCGATCCCTCCC | 473 a.u. |
| AAAGCGGTAATTTGGCGCGTGGGTGCAGATATCTAT | 88.8 a.u. |
| TTTAGTAATAATAATGATTTAATTAATGATAGTATA | 96.1 a.u. |
| AAATTACTAAGTTGTGACGTGGGTGACGCCGTATGA | 76.6 a.u. |
